Measurements collected from several papers.
Protocols differ between the studies behind these lines. Values joined by “and” are separate records of one study, mostly repeats; a detail may differ. ± gives the spread as reported.

SMILES | target or system | test | conditions | scale | quantity | value
COc1ccc2nccc(Cc3cccc(-c4ccc(CO)cc4)c3)c2c1 | A549 | mitochondrial oxygen consumption, Seahorse XF96 | 10 µM | – | inhibition | 94%
CC(O)CC(=O)O (stereo not drawn) | – | binding, equilibrium dialysis LC-MS | 5 µM, thermostabilized A2AR-BRIL construct | relative to: no-protein control, direction not given | z-scored log2 fold change | -0.0853
COc1ccc2nccc(Cc3cccc(-c4ccc(C(=O)O)cc4)c3)c2c1 | A549 | mitochondrial oxygen consumption, Seahorse XF96 | 10 µM | – | inhibition | 3%
COc1cc2c(cc1O)C(Cc1ccc(O)c(-c3c(O)c(OC)cc4c3C(Cc3ccc(O)cc3)N(C)CC4)c1)N(C)CC2 (stereo not drawn) | 3T3-L1 | adipocyte lipid accumulation, Nile Red staining | 10 µM | – | inhibition | 2.3 ± 0.8%
C=CC(=O)N1CCC[C@@H](c2ccc(C(N)=O)c3[nH]ccc23)C1 | TMD8 RAC2 knockout | calcium flux, FLIPR | concentration not given, 2 h preincubation | – | inhibition | 69.8%
O[C@H]1[C@H](O)[C@@H](O)[C@H](O)[C@@H](O)[C@H]1O | – | binding, equilibrium dialysis LC-MS | 5 µM, thermostabilized A2AR-BRIL construct | relative to: no-protein control, direction not given | z-scored log2 fold change | -1.69
C[C@H]1CN(C2COC2)CCN1c1ccc(Nc2cc(-c3ccnc(N4CCn5c(cc6c5CC(C)(C)C6)C4=O)c3CO)cn(C)c2=O)nc1 | TMD8 RAC2 knockout | calcium flux, FLIPR | concentration not given, 4 h preincubation | – | inhibition | 99%
COc1ccc(C[C@@H]2c3cc(Oc4cc(C[C@H]5c6cc(OC)c(OC)cc6CCN5C)ccc4O)c(OC)cc3CCN2C)cc1 | 3T3-L1 | adipocyte lipid accumulation, Nile Red staining | 1 µM | – | inhibition | 15.7 ± 0.3%
COc1ccc(C(=O)c2nccc3cc(OC)c(OC)cc23)cc1 | A549 | mitochondrial oxygen consumption, Seahorse XF96 | 10 µM | – | inhibition | 15%
Cc1nn(-c2nc3c(F)cc(F)cc3s2)c(O)c1C(c1ccc(C(F)(F)F)cc1)c1c(C)nn(-c2nc3c(F)cc(F)cc3s2)c1O | RAW-ISG | IFN luciferase reporter | 40 µM, added: HT-DNA | – | inhibition | 101%
COc1cc2ccnc(Cc3cccc4ccccc34)c2cc1OC | A549 | mitochondrial oxygen consumption, Seahorse XF96 | 10 µM | – | inhibition | 59%
Cc1cc(-c2nc(-c3ccc(OC(F)(F)F)cc3)no2)nn1Cc1ccnc(N2CCN(C3CC3)CC2)c1 | H460 | CellTiter-Glo, refers to: mitochondrial ATP | 1e-05 µM | relative to: vehicle | inhibition | > 50%
C=CC(=O)N1CCC([C@@H]2CCNc3c(C(N)=O)c(-c4ccc(Oc5ccccc5)cc4)nn32)CC1 | TMD8 RAC2 knockout | calcium flux, FLIPR | concentration not given, 2 h preincubation | – | inhibition | 99.5%
C=C(c1ccc(O)c(Oc2cc3c(cc2OC)CCN(C)[C@@H]3Cc2ccc(OC)cc2)c1)[C@@H]1c2cc(O)c(OC)cc2CCN1C | 3T3-L1 | adipocyte lipid accumulation, Nile Red staining | 2.5 µM | – | inhibition | 11 ± 0.8%
COc1cc2ncnc(Cc3cccc(-c4ccccn4)c3)c2cc1OC | A549 | mitochondrial oxygen consumption, Seahorse XF96 | 10 µM | – | inhibition | 10%
Cc1nn(-c2nc3ccc(Cl)c(Cl)c3[nH]2)c(O)c1C1OC(=O)c2ccccc21 (stereo not drawn) | RAW-ISG | IFN luciferase reporter | 5 µM, added: HT-DNA | – | inhibition | 78.2% and 77.5% and 77.8% and 77.9% and 78.3%
C=CC(=O)Nc1cccc(Oc2nc(Nc3ccc(N4CCN(C)CC4)cc3)nc3ccoc23)c1 | TMD8 RAC2 knockout | calcium flux, FLIPR | concentration not given, 1 h preincubation | – | inhibition | 82.1%
COc1cc2c(cc1OC)[C@@H](Cc1ccc(O)c(Oc3cc4c(cc3OC)CCN(C)[C@@H]4Cc3ccc(O)cc3)c1)N(C)CC2 | 3T3-L1 | adipocyte lipid accumulation, Nile Red staining | 20 µM | – | inhibition | 35 ± 1.1%
O=c1ncccn1[C@@H]1O[C@H](CO)[C@@H](O)[C@H]1O | MEC1 | cell proliferation, hemacytometer cell count | 200 µM, 48 h pretreatment, added: external beam irradiation 2 Gy | – | inhibition | ~50%
COc1cc2ncnc(Cc3cccc(Cl)c3)c2cc1OC | A549 | mitochondrial oxygen consumption, Seahorse XF96 | 10 µM | – | inhibition | 16%
COc1ccc(C[C@@H]2c3cc(Oc4cc(/C=C5\CN(C)CCc6cc(OC)c(OC)cc65)ccc4O)c(OC)cc3CCN2C)cc1 | 3T3-L1 | adipocyte lipid accumulation, Nile Red staining | 10 µM | – | inhibition | 27.6 ± 1.8%
COc1cc2ncnc(Cc3cccc(-c4ccccc4)c3C)c2cc1OC | A549 | mitochondrial oxygen consumption, Seahorse XF96 | 10 µM | – | inhibition | 32%
C=C(c1ccc(OC)cc1)[C@@H]1c2cc(Oc3cc(C[C@H]4c5cc(OC)c(OC)cc5CCN4C)ccc3O)c(OC)cc2CCN1C | 3T3-L1 | adipocyte lipid accumulation, Nile Red staining | 10 µM | – | inhibition | 30.7 ± 1%
CC#CC(=O)N1CCC[C@H]1c1nc(-c2ccc(C(=O)Nc3ccccn3)cc2)c2c(N)nccn12 | TMD8 RAC2 knockout | calcium flux, FLIPR | concentration not given, 1 h preincubation | – | inhibition | 96.6%
COc1ccc(C[C@@H]2c3cc(Oc4cc(C[C@@H]5c6cc(O)c(OC)cc6CCN5C)ccc4O)c(OC)cc3CCN2C)cc1 | 3T3-L1 | adipocyte lipid accumulation, Nile Red staining | 10 µM | – | inhibition | 38.2 ± 0.6%
COc1ccc(Cc2ncnc3ccccc23)cc1OC | A549 | mitochondrial oxygen consumption, Seahorse XF96 | 10 µM | – | inhibition | 16%
C=CC(=O)N1CCC[C@@H](n2nc(-c3ccc(Oc4ccccc4)cc3)c3c(N)ncnc32)C1 | TMD8 RAC2 knockout | calcium flux, FLIPR | concentration not given, 4 h preincubation | – | inhibition | 101%

Excerpt of the above:
SMILES | target or system | test | conditions | scale | quantity | value
CC#CC(=O)N1CCC[C@H]1c1nc(-c2ccc(C(=O)Nc3ccccn3)cc2)c2c(N)nccn12 | TMD8 RAC2 knockout | calcium flux, FLIPR | concentration not given, 1 h preincubation | – | inhibition | 96.6%
COc1ccc(C[C@@H]2c3cc(Oc4cc(C[C@@H]5c6cc(O)c(OC)cc6CCN5C)ccc4O)c(OC)cc3CCN2C)cc1 | 3T3-L1 | adipocyte lipid accumulation, Nile Red staining | 10 µM | – | inhibition | 38.2 ± 0.6%
COc1ccc(Cc2ncnc3ccccc23)cc1OC | A549 | mitochondrial oxygen consumption, Seahorse XF96 | 10 µM | – | inhibition | 16%
C=CC(=O)N1CCC[C@@H](n2nc(-c3ccc(Oc4ccccc4)cc3)c3c(N)ncnc32)C1 | TMD8 RAC2 knockout | calcium flux, FLIPR | concentration not given, 4 h preincubation | – | inhibition | 101%
